Measured values from different studies.
Each line is one published result; not all experiments were run side by side. ± marks the error that the study gave.

Compound | assay | test system | setting | scale | quantity | result
COc1cc(C(Oc2ccc(C[C@H](N)C(=O)N[C@H](C)C(=O)NCC(=O)N(C)[C@@H](Cc3ccccc3)C(=O)NCCO)cc2)C(=O)O)c([N+](=O)[O-])cc1OC (stereo partly drawn) | inhibitory synaptic transmission, whole-cell voltage clamp | mouse hippocampal slices CA1 | 1 µM, added: UV uncaging plus CTAP 1 µM |  | IPSC suppression fraction | -0.05 ± 0.1
CC[C@H](C)[C@H](NC(=O)[C@H](CCCNC(=N)N)NC(=O)[C@H](CCC(N)=O)NC(=O)[C@H](CC(=O)O)NC(=O)[C@H](CC(C)C)NC(=O)[C@H](CC(C)C)NC(=O)[C@H](CC(N)=O)NC(=O)[C@H](Cc1ccccc1)NC(=O)[C@H](CC(=O)O)NC(=O)[C@@H](NC(=O)[C@@H](NC(=O)[C@H](CC(N)=O)NC(=O)CNC(=O)[C@H](CO)NC(C)=O)C(C)C)[C@@H](C)CC)C(=O)N[C@H](C(=O)N[C@@H](Cc1c[nH]c2ccccc12)C(=O)N[C@@H](CCC(N)=O)C(=O)N[C@@H](CC(N)=O)C(=O)N[C@@H](Cc1c[nH]c2ccccc12)C(=O)N[C@@H](Cc1ccc(O)cc1)C(=O)N[C@@H](C)C(N)=O)[C@@H](C)CC | item: HA-51 tetramer | antigen-experienced tetramer+ CD4 T cells, healthy adults, HLA-DRB1*0101 | dose not given |  | α4β7− CCR9+ cells | 7.69%
Cc1cc(O)cc(C)c1CC(N)C(=O)NC1CCNc2c(C(=O)NCc3ccccc3)cc(Cc3ccccc3)cc21 (stereo not drawn) | warm water tail withdrawal | male C57BL/6 mice | intraperitoneal, 10 mg/kg |  | antinociception | inactive
CCOc1cncc(-c2ccc(NC(=O)C3(c4ccnc(NS(=O)(=O)C5CC5)n4)CCOCC3)nc2)n1 | enzyme activity, inhibitor, RapidFire mass spectrometry | dog |  | reference: CTPS1 over CTPS2 | selectivity ratio | 840
CC(C)C[C@@H]1NC(=O)[C@H](C(C)C)NC(=O)[C@H](CO)NC(=O)CNC(=O)CNC(=O)[C@H](CCCNC(=N)N)NC(=O)[C@@H]2CCCN2C(=O)[C@@H](NC(=O)CC[C@H](NC(=O)c2ccc(N(C)Cc3cnc4nc(N)nc(N)c4n3)cc2)C(=O)O)C(C)(C)SSC[C@@H](C(=O)O)NC(=O)CNC(=O)[C@H]([C@@H](C)O)NC(=O)[C@H](C(C)C)NC1=O |  | rat adjuvant arthritis | iv, 0.2 mg/kg once daily, day 14 |  | spleen weight | 0.482 ± 0.0248 g
Cc1cnc(Nc2ccc(C3CCN(C)CC3)c(F)c2)nc1Nc1ccc(Cl)c(NS(=O)(=O)C(C)(C)C)c1 |  | U-266 multiple myeloma, ULK3 knockdown, mice, U-266 xenograft | subcutaneous, 10 mg/kg/day, Mon-Fri from day 20 |  | median survival | 87 days
O=C(/C=C/c1ccc(O)cc1)OC[C@H]1O[C@@H](Oc2cc(O)c3c(=O)cc(-c4ccc(O)cc4)oc3c2)[C@H](O)[C@@H](O)[C@@H]1O | ABTS scavenging, absorbance |  | 15 min |  | IC50 | 42.6 µM
CCN(CCCCOc1ccc(CCC(=O)N2CCC(Cc3ccccc3)CC2)cc1OC)Cc1ccccc1 | proteomics | mouse, APP/PS1, cerebral cortex | dose not given |  | VLDLR protein level | increased
Cc1cc(O)cc(C)c1CC(N)C(=O)NC1CCNc2c1cc(Cc1ccccc1)cc2C(C)(C)C (stereo not drawn) | warm water tail withdrawal | male C57BL/6 mouse | ip, 10 mg/kg, 50 °C, cutoff 20 s |  | tail withdrawal latency | 10 s
CC[C@H](C)[C@H](NC(=O)[C@H](C)NC(=O)CNC(=O)[C@@H](N)CCSC)C(=O)N[C@@H](C)C(=O)N[C@@H](CCCCN)C(=O)N[C@@H](CC(C)C)C(=O)N[C@H](C(=O)N[C@@H](C)C(=O)N[C@@H](CCCCN)C(=O)N[C@@H](Cc1ccccc1)C(=O)NCC(=O)N[C@@H](Cc1c[nH]c2ccccc12)C(=O)N1CCC[C@H]1C(=O)N[C@@H](Cc1ccccc1)C(=O)N[C@H](C(=O)N[C@@H](CCCCN)C(=O)N[C@@H](CCCCN)C(=O)N[C@@H](Cc1ccccc1)C(=O)N[C@@H](Cc1ccc(O)cc1)C(=O)N[C@@H](CCCCN)C(=O)N[C@@H](CCC(N)=O)C(=O)N[C@H](C(=O)N[C@@H](CCSC)C(=O)N[C@@H](CCC(N)=O)C(=O)N[C@@H](Cc1ccccc1)C(=O)N[C@H](C(=O)NCC(=O)N[C@@H](CCC(N)=O)C(=O)NCC(=O)N[C@@H](Cc1c[nH]c2ccccc12)C(=O)N[C@H](C(=O)N[C@H](C(=O)N[C@@H](CC(=O)O)C(=O)N[C@@H](CCC(N)=O)C(=O)N[C@H](C(=O)N[C@@H](CCC(=O)O)C(=O)N[C@@H](CCCCN)C(=O)N[C@@H](Cc1c[nH]c2ccccc12)C(=O)N[C@@H](CC(C)C)C(=O)N[C@@H](CCCCN)C(=O)N[C@@H](CCCNC(=N)N)C(=O)N[C@@H](Cc1c[nH]cn1)C(=O)O)[C@@H](C)CC)[C@@H](C)CC)[C@@H](C)O)[C@@H](C)CC)[C@@H](C)CC)[C@@H](C)CC)C(C)C |  | PG/PE 1:1 liposomes | MIC | reference: Triton X-100 | calcein release | 30.5 ± 1.3%
C[C@@H](O)[C@H](NC(=O)[C@@H]1CSSC[C@H](NC(=O)[C@@H](Cc2ccccc2)NC(=O)CN2CCN(CC(N)=O)CCN(CC(N)=O)CCN(CC(N)=O)CC2)C(=O)N[C@@H](Cc2ccc(O)cc2)C(=O)N[C@H](Cc2c[nH]c3ccccc23)C(=O)N[C@@H](CCCCN)C(=O)N[C@@H]([C@@H](C)O)C(=O)N1)C(=O)O [lead-212 labelled] |  | mice, AR-42J tumour model | single injection of 10 µCi |  | median survival | 8.5 weeks
COC[C@@H](NC(C)=O)C(=O)NCc1ccc(OCc2cccc(OC(F)(F)F)c2)cc1 | formalin test, phase I | mouse | ip, 12 mg/kg | reference: vehicle | licking time | 114%
CC[C@H](C)[C@H](NC(=O)[C@H](Cc1c[nH]c2ccccc12)NC(=O)[C@H](CCCNC(=N)N)NC(=O)[C@H](CCCCN)NC(=O)[C@H](CC(C)C)NC(=O)[C@H](CC(=O)O)NC(=O)[C@H](Cc1ccccc1)NC(=O)[C@H](C)NC(=O)[C@H](Cc1ccc(O)cc1)NC(=O)[C@H](CC(N)=O)NC(=O)[C@H](Cc1ccc(O)cc1)NC(=O)[C@H](CCCNC(=N)N)NC(=O)[C@H](Cc1ccc(O)cc1)NC(=O)[C@H](Cc1ccc(O)cc1)NC(=O)[C@@H](NC(=O)[C@H](CC(C)C)NC(=O)[C@H](C)NC(=O)[C@H](CC(N)=O)NC(=O)[C@H](Cc1ccc(O)cc1)NC(C)=O)[C@@H](C)CC)C(=O)N[C@@H](Cc1ccc(O)cc1)C(=O)N[C@@H](CC(C)C)C(N)=O | item: HA-15 tetramer | antigen-experienced tetramer+ CD4 T cells, healthy adults, HLA-DRB1*0101 | dose not given |  | α4β7− CCR9− cells | 50%
CC(C)C[C@H](NC(=O)CN)C(=O)NCC(=O)N[C@@H](CCCCN)C(=O)N[C@@H](CC(C)C)C(=O)N[C@@H](CC(C)C)C(=O)N[C@@H](Cc1c[nH]cn1)C(=O)N[C@@H](C)C(=O)N[C@@H](C)C(=O)N[C@@H](CCCCN)C(=O)N[C@@H](CCCCN)C(=O)N[C@@H](CC(C)C)C(=O)NCC(=O)N[C@@H](CCCCN)C(=O)N[C@@H](C)C(=O)N[C@@H](Cc1c[nH]c2ccccc12)C(=O)N[C@@H](CC(C)C)C(=O)NCC(=O)N[C@@H](CCC(=O)O)C(=O)N[C@@H](CC(C)C)C(=O)N[C@@H](CC(C)C)C(=O)N[C@@H](C)C(=O)N[C@@H](C)C(=O)O |  | POPC/POPG 1:1 vesicles |  | reference: DPX over ANTS | DPX/ANTS release rate ratio | 3
COC[C@@H](NC(C)=O)C(=O)NCc1ccc(OCc2ccc(Cl)cc2)cc1 | formalin test, phase II | mouse | ip, 7.0 mg/kg | reference: vehicle | licking time | 103%
CCOP(=O)(CC(=O)Nc1ccc(S(=O)(=O)N(CC(N)=O)c2ccc(N(CC(N)=O)S(=O)(=O)c3ccc(OC)cc3)c3ccccc23)cc1)OCC | Nissl staining | APP/PS1 mice, hippocampus CA1, CA3, DG | 40 mg/kg | reference: untreated APP/PS1 | dead neuron number | decreased
CC[C@H](C)[C@H](NC(=O)[C@@H](NC(=O)[C@H](CC(=O)O)NC(C)=O)[C@@H](C)O)C(=O)N[C@@H](CCCNC(=N)N)C(=O)N[C@@H](CC(C)C)C(=O)N[C@@H](CC(C)C)C(=O)N[C@@H](Cc1ccccc1)C(=O)N[C@@H](CCC(N)=O)C(=O)N[C@@H](CC(C)C)C(=O)N[C@@H](CCSC)C(=O)N[C@@H](CCCNC(=N)N)C(=O)N1CCC[C@H]1C(=O)N1CCC[C@H]1C(=O)N[C@@H](CC(N)=O)C(=O)N[C@@H](CCSC)C(=O)N[C@H](C(=O)N1CCC[C@H]1C(=O)N[C@@H](C)C(=O)N[C@H](C(=O)N[C@@H](CC(N)=O)C(=O)N[C@@H](C)C(N)=O)C(C)C)[C@@H](C)O | item: HA-52 tetramer | antigen-experienced tetramer+ CD4 T cells, healthy adults, HLA-DRB1*0101 | dose not given |  | α4β7− CCR9− cells | 43.7%
CCN(Cc1ccccc1)C(=O)CCc1nc(CN2CCN(C(=O)Cc3ccc(OC)c(OC)c3)CC2)no1 | current clamp | L4-L6 DRG neurons, rat CCI model | 10 µM, added: 500 pA current injection |  | action potential amplitude | 96.6 ± 1.01 mV
CC(C)C[C@@H]1NC(=O)[C@@H](Cc2c[nH]c3ccccc23)NC(=O)[C@H](CCCCN)NC(=O)[C@@H](Cc2c[nH]cn2)NC(=O)[C@H](CO)NC(=O)[C@@H](Cc2c[nH]cn2)NC(=O)[C@H](CCCCN)NC(=O)[C@@H](Cc2c[nH]c3ccccc23)NC1=O | ELISA | human plasma | concentration not given |  | pre-beta HDL concentration | 68 ± 5 µg/mL
Cc1ccc(/C=C/C(=O)O)cc1-c1cc2c(cc1C)C(C)(C)CCC2(C)C | RNA sequencing, item: Sycp2 | rat, brain | dose not given, 24 h | reference: vehicle | log2 fold change | 0.24
CC1(O)CC23CC(O)C4(O)C(C5OC5C4(C)C)C(C)(O)C2CCC1C3O (stereo not drawn) | formalin phase I | mouse formalin test | oral, 0.10 mg/kg, 0.25 h | reference: saline | licking time | active

A few entries again:
Compound | assay | test system | setting | scale | quantity | result
Cc1ccc(/C=C/C(=O)O)cc1-c1cc2c(cc1C)C(C)(C)CCC2(C)C | RNA sequencing, item: Sycp2 | rat, brain | dose not given, 24 h | reference: vehicle | log2 fold change | 0.24
CC1(O)CC23CC(O)C4(O)C(C5OC5C4(C)C)C(C)(O)C2CCC1C3O (stereo not drawn) | formalin phase I | mouse formalin test | oral, 0.10 mg/kg, 0.25 h | reference: saline | licking time | active
